Published values from different studies.
Lines come from different studies, so protocols differ. Values joined by “and” are separate records of one study, mostly repeats; a detail may differ. ± marks the error that the study gave. ≈ marks a conversion by molar mass, not a printed value.

Compound	tested on	assay	test system	setting	how to read	measurement	result
COc1ccccc1-c1ccncc1C(=O)Nc1nnc(OCc2ccc(Cl)cc2)s1	RPE-1 BRCA1 WT parental			8 µM, run 2	relative to: untreated	colony survival	76.3%
CN1C(=O)C(C2C3=C(CCCC3=O)Oc3ccc(Br)cc32)C(=O)N(C)C1=O (stereo not drawn)	3T3-L1 mature adipocytes	lipolysis, Oil Red O staining		IC20		mean lipid content	0.594 OD492
O=C1NC2(CC2)COc2ncc(F)cc2[C@H]2COCCN2c2ccn3ncc1c3n2			Sprague-Dawley rat, female, kidneys	oral, 20 mg/kg/day, 4 weeks, end of treatment		organ-to-body weight ratio	0.678 ± 0.051%
CC[C@H](C)[C@H](NC(=O)[C@H](CCCNC(=N)N)NC(=O)[C@H](CO)NC(=O)[C@H](Cc1ccc(O)cc1)NC(=O)[C@@H](NC(=O)[C@@H](NC(=O)[C@H](C)NC(=O)CNC(=O)[C@H](CCCCN)NC(=O)[C@H](CCCCN)NC(=O)CCNC(=O)CCCCCNC(=O)[C@H](CCCNC(=N)N)NC(=O)CCCCCNC(=O)[C@H](CCCNC(=N)N)NC(=O)[C@H](CCCNC(=N)N)NC(=O)CCCCCNC(=O)[C@H](CCCNC(=N)N)NC(=O)[C@H](CCCNC(=N)N)NC(=O)CCCCCNC(=O)[C@H](CCCNC(=N)N)NC(=O)[C@H](CCCNC(=N)N)NC(=O)CCCCCNC(=O)[C@@H](N)CCCNC(=N)N)C(C)C)[C@@H](C)O)C(=O)N[C@@H](CO)C(=O)NCC(=O)N[C@@H](CCC(N)=O)C(=O)N[C@@H](Cc1ccc(O)cc1)C(=O)N[C@@H](CCCCN)C(=O)O		broth microdilution	ATCC 1720 resistant strain, Mueller-Hinton broth			MIC	12 µM (≈ 42.9 µg/mL)
Cc1cc(Oc2nc(N3CC[C@@H](c4ccncc4)C3)ncc2F)[nH]n1	JEG-3	cell proliferation				IC50	28800 nM
CCN(CC)C(=O)[C@@H]1C=C2c3cccc4c3c(cn4C(=O)c3ccco3)C[C@H]2N(C)C1		magnetometer	C57BL/6J mouse, male	intraperitoneal, 0.5 mg/kg, 30 min session		head-twitch response count	50.8
Cc1cc(C(=O)Nc2nc3cccc(C)c3n2[C@H]2CCCCN(C(=O)/C=C/CN(C)C)C2)ccn1	Trypanosoma brucei	propidium iodide flow cytometry, refers to: G1 phase	bloodstream CLK1 over-expression induced	concentration not given		cell cycle distribution	46.5% and 41% and 45.7%
COc1ccccc1-c1n[nH]c2nc(NC3CCN(C(=O)Cc4ccc(F)cc4F)CC3)ncc12		bead binding, competition bead pull-down, refers to: LINJ.19.1560	Leishmania donovani axenic amastigote extract	10 µM	relative to: vehicle	relative abundance	1.18
CC(C)(C)C(=O)OCOP(=O)(OCOC(=O)C(C)(C)C)C1CCCN(O)C1=O (stereo not drawn)	UACC-62					TGI	2100 nM
CC(C)CC(C(=O)N1CC2(CC1C#N)C(=O)Nc1ccccc12)N(C)C(=O)c1cc2c(F)cc(F)c(F)c2[nH]1 (stereo not drawn)	human coronavirus 229E	cytopathic effect		concentration not given		inhibition	0%
CCCCCC1=C(NCC)C(=O)C(C/C=C(\C)CCC=C(C)C)=C(O)C1=O		RNA-seq GSEA, refers to: HALLMARK_ALLOGRAFT_REJECTION	mouse, A53T α-synuclein lesioned, striatum	dose not given	relative to: untreated A53T lesioned mice, direction not given	normalised enrichment score	1.69
CC1CCC2C(C)C(CCCOC(=O)C(Cc3ccc(N(CCCl)CCCl)cc3)NC(=O)OC(C)(C)C)OC3OC4(C)CCC1C32OO4 (stereo not drawn)	A2780	cell growth or viability, CCK-8				IC50	1290 nM
CCN(CC)C(=O)[C@@H]1C=C2c3cccc4c3c(cn4C(=O)c3cccs3)C[C@H]2N(C)C1		magnetometer	C57BL/6J mouse, male	intraperitoneal, 6 mg/kg, 30 min session		head-twitch response count	40
Cc1ccc(C2=CC(C)(C)Oc3ccc(-c4ccc(-c5ccc(C(=O)O)cc5)[nH]4)cc32)cc1			CD-1 mouse, male, testis	20 mg/kg/day, 2 weeks, one day after dosing end		tubules with multinucleated giant cells	1.4% and 12.7%
[2H]C([2H])([2H])C1(C([2H])([2H])[2H])NC(=O)N(c2ccc(F)c(C(F)(F)F)c2)C1=O	Schistosoma mansoni		adult, infected mice	oral, single dose		ED50	8 mg/kg
O=C(C[Se]C(=O)c1ccco1)Nc1cccc(C(F)(F)F)c1	NCI60 ovarian subpanel	cell growth, inhibitor		five-dose		GI50	2990 nM
CC1(C)CC(=O)C2=C(C1)Oc1ccccc1C2C1C(=O)NC(=O)NC1=O (stereo not drawn)	3T3-L1	cell growth or viability, MTT		72 h		IC20	47.4 µg/mL (≈ 134 µM)
COc1ccccc1-c1n[nH]c2nc(N[C@H]3CC[C@H](NS(=O)(=O)CC(C)C)CC3)ncc12		bead binding, competition bead pull-down, refers to: LMJF.36.0180	Leishmania donovani extract	10 µM	relative to: vehicle	relative abundance	0.87

Repeated from above:
Compound	tested on	assay	test system	setting	how to read	measurement	result
COc1ccccc1-c1n[nH]c2nc(N[C@H]3CC[C@H](NS(=O)(=O)CC(C)C)CC3)ncc12		bead binding, competition bead pull-down, refers to: LMJF.36.0180	Leishmania donovani extract	10 µM	relative to: vehicle	relative abundance	0.87
